Measured values collected from several papers.
Protocols differ between the studies behind these lines. ± marks the error that the study gave.
Organism: Plasmodium falciparum

`CC(C)C[C@@H](NC(=O)[C@@H](C)NC(=O)[C@@H](CCCCN)NC(=O)[C@H](N)CCCCN)C(=O)N[C@H](C)C(=O)N[C@H](Cc1c[nH]cn1)C(=O)N[C@H](C)C(=O)N[C@H](CC(C)C)C(=O)N[C@H](CCCCN)C(=O)N[C@H](CCCCN)C(=O)N[C@H](Cc1c[nH]c2ccccc12)C(=O)N[C@H](CC(C)C)C(=O)N1CCC[C@@H]1C(=O)N[C@H](C)C(=O)N[C@H](CC(C)C)C(=O)N[C@H](CCCCN)C(=O)N[C@H](CCCCN)C(=O)N[C@H](CC(C)C)C(=O)N[C@H](C)C(=O)N[C@H](Cc1c[nH]cn1)C(=O)N[C@H](C)C(=O)N[C@H](CC(C)C)C(=O)N[C@H](C)C(=O)N[C@H](CCCCN)C(=O)N[C@H](CCCCN)C(N)=O` gave an EC50 of 2880 ± 250 nM (SYBR Green fluorescence; C10; 48 h, 37 °C).
`O=C1C2=C(Nc3ccccc3SC2c2ccsc2)c2ccccc21` (racemic) has an EC50 of 157 nM (growth, [3H]hypoxanthine incorporation; Dd2).
The EC50 of `COC(=O)c1[nH]c(C(=O)OC)c2c1-c1c[nH]c3ccc(Cl)c(c13)[C@@]21C=Nc2ccc(Cl)cc21` is reported as 6600 nM (parasite growth, SYBR Green; DD2; 72 h, drug-resistant strain, blood stage).
`CN(C)CCCOc1ccc(C2Sc3ccccc3NC3=C2C(=O)c2ccccc23)cc1` (racemic) has an EC50 of 1470 nM (growth, [3H]hypoxanthine incorporation; 3D7).
With `CC(C)C[C@@H](NC(=O)[C@@H](C)NC(=O)[C@@H](CC(C)C)NC(=O)[C@@H](CCCCN)NC(=O)[C@H](N)CCCCN)C(=O)N[C@H](C)C(=O)N[C@H](CC(C)C)C(=O)N[C@H](C)C(=O)N[C@H](CCCCN)C(=O)N[C@H](CCCCN)C(=O)N[C@H](Cc1c[nH]c2ccccc12)C(=O)N[C@H](CC(C)C)C(=O)N[C@H](C)C(=O)N[C@H](CC(C)C)C(=O)N[C@H](C)C(=O)N[C@H](CCCCN)C(=O)N[C@H](CCCCN)C(=O)N[C@H](CC(C)C)C(=O)N[C@H](C)C(=O)N[C@H](CC(C)C)C(=O)N[C@H](C)C(=O)N[C@H](CC(C)C)C(=O)N[C@H](C)C(=O)N[C@H](CCCCN)C(=O)N[C@H](CCCCN)C(N)=O` the EC50 was 1450 ± 120 nM (SYBR Green fluorescence; 3D7; 48 h, 37 °C).
With `CCC12C=C(C(=O)OC)n3c(c(c4ccccc43)CCN(C=CC(=O)OC)CCC1)C2OC(C)C` (stereo not drawn) the EC50 was 3770 nM (parasite growth, SYBR Green; DD2; drug-resistant strain, blood stage).
`CC(C)C[C@@H](NC(=O)[C@H]1CCCN1C(=O)[C@@H](CC(C)C)NC(=O)[C@@H](Cc1c[nH]c2ccccc12)NC(=O)[C@@H](CCCCN)NC(=O)[C@@H](CCCCN)NC(=O)[C@@H](C)NC(=O)[C@@H](CC(C)C)NC(=O)[C@@H](C)NC(=O)[C@@H](CC(C)C)NC(=O)[C@@H](C)NC(=O)[C@@H](CC(C)C)NC(=O)[C@@H](CCCCN)NC(=O)[C@H](N)CCCCN)C(=O)N[C@H](C)C(=O)N[C@H](CCCCN)C(=O)N[C@H](CCCCN)C(=O)N[C@H](CC(C)C)C(=O)N[C@H](C)C(=O)N[C@H](CC(C)C)C(=O)N[C@H](C)C(=O)N[C@H](CC(C)C)C(=O)N[C@H](C)C(=O)N[C@H](CCCCN)C(=O)N[C@H](CCCCN)C(N)=O` has an EC50 of 2360 ± 100 nM (SYBR Green fluorescence; C10; 48 h, 37 °C).
For `O=C1C2=C(Nc3ccccc3SC2c2ccc(F)cc2)c2ccccc21` (racemic), the EC50 was > 5000 nM (growth, hypoxanthine uptake; Dd2 expressing yeast DHOD).
With `CCC(C)C1NC(=O)C(Cc2ccccc2)NC(=O)C(CCCCCC(=O)C2CO2)NC(=O)C2CCCCN2C1=O` (stereo not drawn) the EC50 was 69 ± 3 nM (parasite growth, SYBR Green I; 3D7, drug-sensitive; 72 h).

Some of these lines once more:
With `CCC12C=C(C(=O)OC)n3c(c(c4ccccc43)CCN(C=CC(=O)OC)CCC1)C2OC(C)C` (stereo not drawn) the EC50 was 3770 nM (parasite growth, SYBR Green; DD2; drug-resistant strain, blood stage).
